Results pooled from the literature.
Target: Kappa-type opioid receptor (OPRK1, Homo sapiens, UniProt P41145)
Chain of UniProt P41145 (whole entry, looked up): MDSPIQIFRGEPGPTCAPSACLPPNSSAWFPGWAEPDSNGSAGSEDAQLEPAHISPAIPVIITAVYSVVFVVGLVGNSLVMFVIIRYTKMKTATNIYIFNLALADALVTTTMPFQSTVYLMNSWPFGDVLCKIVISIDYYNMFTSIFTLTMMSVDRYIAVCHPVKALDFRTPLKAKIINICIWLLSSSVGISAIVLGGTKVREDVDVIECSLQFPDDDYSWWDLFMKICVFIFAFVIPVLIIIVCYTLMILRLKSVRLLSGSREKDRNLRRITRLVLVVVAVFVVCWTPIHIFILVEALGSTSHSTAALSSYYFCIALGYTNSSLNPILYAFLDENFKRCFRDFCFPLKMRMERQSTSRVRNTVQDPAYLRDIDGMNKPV

With `Cn1ccc2cc(-n3c(=O)[nH]c4sc5c(c4c3=O)CCCC5)ccc21` the inhibition was 10% (ligand displacement, radioligand; 10 µM).
The inhibition of `COc1ncc2nc(C)n(Cc3ncc(S(N)(=O)=O)cc3F)c2c1-c1ccccc1` is reported as -1.71% (antagonist, cell-based; 10 µM).
`C[Si](C)(C)C[C@@H](CN)CC(=O)O` gave an inhibition of 0% (ligand displacement, radioligand; 75 µM).
For `COc1ccc(C#CC2=C[C@H]3C[C@@]4(OC(=O)C=C24)[C@H]2CC[C@H](C(OC)OC)N32)cc1`, the inhibition was 30% (ligand displacement, radioligand; 10 µM).
With `NC(=O)c1cccc(CN(C(=O)NC(CN2CCCCC2)c2ccccc2)C(CN2CCCCC2)c2ccccc2)c1` (stereo not drawn) the log(tau/KA) was 7.4 (Gi signalling).
The inhibition of `COCC(=O)N1CCc2cc(-c3csc(NC(=O)c4cc(OC)cc(OC)c4)n3)ccc21` is reported as 2% (cell-free assay; 10 µM).
For `COc1ccc(C(=O)Nc2c(-c3cccs3)nc3ccccn23)cc1`, the inhibition was under 50% (ligand displacement, radioligand; 10 µM).
`NC(=O)c1cccc(CN(Cc2ccc(Cl)c(Cl)c2)C(=O)NC(CN2CCCCC2)c2ccccc2)c1` (stereo not drawn) has a delta log(tau/KA) of -2.32 (beta-arrestin recruitment; reference: reference agonist).
For `CC(C)Cn1c(SCC(=O)N2CCc3ccccc3C2)nc2cc(Cl)ccc2c1=O`, the inhibition was -10% (ligand displacement, radioligand; 10 µM).
With `Cc1[nH]nc2c1N=C(c1ccccc1Cl)c1cnc(N3CCOCC3)cc1N2` the inhibition was 4% (cell-free assay; 10 µM).
`CC(=O)C12NC(C)(C)CC1(C)C(=O)C1=C2c2c(c3c4n2C(C)(C)CC2=C4C4(CC(C)(C)NC(C)(C4)C2=O)CC3(C)C)C(=O)C(C)(C)N1` (single isomer, unassigned; (+)) gave an activation of 5.6% (cAMP level, agonist, LANCE Ultra cAMP; CHO; 50 µM).
`O=C1c2sc(-c3ccc(N4CCC(CO)CC4)nc3F)nc2CCN1c1cccnc1` gave an inhibition of 5% (ligand displacement, radioligand; 1 µM).

For quick reference, copied from above:
With `Cc1[nH]nc2c1N=C(c1ccccc1Cl)c1cnc(N3CCOCC3)cc1N2` the inhibition was 4% (cell-free assay; 10 µM).
